Assay results gathered from unrelated publications.
Each line is one published result; not all experiments were run side by side. ± marks the error that the study gave.

Structure (SMILES)	test	system	setting	how to read	measurement	value
O=S(=O)(c1ccccc1)N(CCc1nnc(S)o1)c1ccccc1		rat	100 mg/kg, 3 h, together with: carrageenan		paw edema inhibition	43.4%
CCCCCCCCCCCCCCCC(=O)OCC(CSC[C@H](N)C(=O)N[C@@H](CO)C(=O)N[C@@H](CCCCN)C(=O)N[C@@H](CCCCN)C(=O)N[C@@H](CCCCN)C(=O)N[C@@H](CCCCN)C(=O)NCCCCCC(=O)N[C@@H](CCCCN)C(=O)N[C@@H](CC(C)C)C(=O)N[C@H](C(=O)N[C@@H](Cc1ccccc1)C(=O)N[C@@H](Cc1ccccc1)C(=O)N[C@@H](Cc1ccc2ccccc2c1)C(=O)O)C(C)C)OC(=O)CCCCCCCCCCCCCCC (some centres unmarked)	item: amyloid plaques	APP/PS1 mouse	intracortical, dose not given, 5 d	reference: vehicle	thioflavin S fluorescence	decreased
Cc1nc(C)c(C=[N+]([O-])C(C)(C)C)nc1C	Western blot, item: HO-1	mouse, MPTP model, substantia nigra nuclei	90 mg/kg		protein level increase	17.1%
CC(=O)c1cnc(N)nc1N1CC[C@H]1c1nn2ccc(Cl)c2c(=O)n1-c1ccccc1	anti-IgD B cell activation, item: CD86	rat, blood	oral, 1 mg/kg, up to 8 h		inhibition	> 90%
CC(C)[C@H](NC(=O)CN)C(=O)N[C@@H](CCCCN)C(=O)NCC(=O)N[C@@H](CC(=O)O)C(=O)N[C@@H](CCCCN)C(=O)NCC(=O)N[C@@H](CC(N)=O)C(=O)N1CCC[C@H]1C(=O)NCC(=O)N[C@@H](Cc1c[nH]c2ccccc12)C(=O)N1CCC[C@H]1C(=O)NCC(=O)N[C@@H](C)C(=O)N1CCC[C@H]1C(=O)O		K1735 M4 melanoma, mouse	dose not given, soluble peptide, together with: type I collagen-coated filters		cell motility	no inhibition
O=[N+]([O-])c1cc(Br)cc([N+](=O)[O-])c1NS(=O)(=O)c1ccc(Br)cc1	RNA-Seq	Arabidopsis thaliana Col seedlings, ten-day-old	50 µM, 3 h	reference: DMSO	number of induced DEGs	1700
C[C@H]1CN(C(=O)c2cn(-c3ccnc(N)n3)c3cc(C#CC4(O)CCCCC4)ccc23)CCN1		A549, mice, lung metastasis model	intravenous, 25 mg/kg daily		mice with lung metastases	34.6%
CC/C=C\C/C=C\C/C=C\C/C=C\C/C=C\CCCCOC(CC)C(=O)O (centres unmarked)		APOE*3Leiden.CETP mice, high-fat/cholesterol diet	dose not given, 20 weeks	reference: control	serum amyloid A change	-68%
COc1ccc(C2CC(c3ccc(C)cc3)=Nc3ccccc3S2)cc1 (centres unmarked)		Wistar rat, STZ-induced diabetes	oral, 20 mg/kg once daily, day 28		blood glucose	105 mg/dL
COc1ccc2c(c1)c(CC(=O)OCC(=O)OC(C)(C)C)c(C)n2C(=O)c1ccc(Cl)cc1	hot plate test	BALB/c mice	75 mg/kg, 0 min		latency of nociceptive response	10 ± 0.75 s
CC[C@H]1[C@@H](O)[C@@H]2[C@H](CC[C@]3(C)[C@@H]([C@H](C)CCOS(=O)(=O)[O-])CC[C@@H]23)[C@@]2(C)CC[C@@H](O)C[C@@H]12.[Na+]		ob/ob NASH mice, plasma	oral, 10 mg/kg once daily, 8 wk		plasma total cholesterol	7.2 ± 0.4 mmol/L
N=C(N)NCCC[C@@H]1NC(=O)[C@H](CCCNC(=N)N)NC(=O)[C@H](CCCNC(=N)N)NC(=O)[C@H](Cc2ccc3ccccc3c2)NC(=O)[C@H](Cc2c[nH]c3ccccc23)NC(=O)[C@H](Cc2ccc3ccccc3c2)NC(=O)[C@H](CCCNC(=N)N)NC1=O	membrane leakage	bacterial mimic liposomes	50 µg/mL, 100% leakage		time to dye leakage	50 min
C=C(c1ncc(C(=O)O)cn1)c1cc2c(cc1C)C(C)(C)CCC2(C)C	RNA sequencing, item: Aurkb mRNA	rat, brain	dose not given, 24 h, single dose	reference: vehicle	log2 fold change	0.34
CSc1cc(C)[nH]c(=O)c1CN1CCc2c(Cl)c3c(c(C)c2C1=O)OC(C)(C1CCC(N(C)C)CC1)O3 (centres unmarked)		mouse, KARPAS-422 xenograft	oral, 10 mg/kg once daily		time to tumour regression	~12 days
CC(C)C1=C(O)C(=O)C2=C(C=C[C@H]3C(C)(C)CCC[C@]23C)C1=O	oxygen radical absorbance capacity, fluorometric				ORAC	0.291 Trolox equivalents
Cc1cc(C)c(-c2[nH]nc(C)c2C)cc1C(=O)N1CC(c2ccc(C#N)cc2)C1		Calu-6 xenograft, Mus musculus	oral, 60 mg/kg once daily, 96 h	reference: vehicle	tumour growth inhibition	14%

Structure (SMILES)	test	system	setting	how to read	measurement	value
Cc1ccc(N(CCc2nnc(S)n2N)S(=O)(=O)c2ccccc2)cc1	paw oedema	rat carrageenan oedema	dose not given, 6 h		inhibition	67.6%
COc1ccc(-n2cc(CO)nn2)cc1	plasma recalcification time	human plasma	10 µM		clotting time	189 ± 3 s
CNc1oc(-c2cccc3ccccc23)nc1C#N		mouse islets	10 µM, 4 h, together with: proinflammatory cytokines		12-HETE release	decreased
COc1ccc(C2CC(c3ccc(C)cc3)=Nc3ccccc3S2)cc1OC (centres unmarked)	oral glucose tolerance test	fasted normal rat, blood	oral, 20 mg/kg, 0 min, together with: oral glucose 3 g/kg		blood glucose	101 ± 4.67 mg/dL
CN1Cc2c(Cl)cc(Cl)cc2C(c2cccc(S(=O)(=O)NCCOCCOCCNC(=O)C(O)C(O)C(=O)NCCOCCOCCNS(=O)(=O)c3cccc(C4CN(C)Cc5c(Cl)cc(Cl)cc54)c3)c2)C1 (centres unmarked)		Sprague Dawley rats	oral, 3 mg/kg, 16 h		fecal water content	53 % by weight
O=C([O-])CN1CCN(CC(=O)[O-])CCN(CC(=O)NC[C@H]2CC[C@H](C(=O)N[C@H](Cc3cnc4ccccc4c3)C(=O)NCCCC[C@H](NC(=O)N[C@@H](CCC(=O)O)C(=O)O)C(=O)O)CC2)CCN(CC(=O)[O-])CC1.[64Cu+2]	item: prostate cancer	patients suspected prostate cancer, PSMA PET/CT-targeted biopsy cores			detection rate	88.9%
CCCCCCCCCCCCCCCC(=O)N[C@@H](CCC(=O)NCCCC[C@H](NC(=O)[C@H](CC(=O)O)NC(=O)[C@H](CO)NC(=O)[C@@H](NC(=O)[C@H](Cc1ccccc1)NC(=O)[C@@H](NC(=O)CNC(=O)[C@H](CCC(N)=O)NC(=O)[C@H](CO)NC(=O)[C@@H](N)Cc1c[nH]cn1)[C@@H](C)O)[C@@H](C)O)C(=O)N[C@@H](CO)C(=O)N[C@@H](CCC(=O)O)C(=O)N[C@@H](Cc1ccc(O)cc1)C(=O)N[C@@H](CC(C)C)C(=O)N[C@@H](CC(=O)O)C(=O)N[C@@H](CO)C(=O)N[C@@H](CCC(=O)O)C(=O)N[C@@H](CCCNC(=N)N)C(=O)N[C@@H](C)C(=O)N[C@@H](CCCNC(=N)N)C(=O)N[C@@H](CC(=O)O)C(=O)N[C@@H](Cc1ccccc1)C(=O)N[C@H](C(=O)N[C@@H](C)C(=O)N[C@@H](Cc1c[nH]c2ccccc12)C(=O)N[C@@H](CC(C)C)C(=O)N[C@@H](CCC(=O)O)C(=O)N[C@@H](C)C(=O)NCC(=O)NCC(=O)O)C(C)C)C(=O)O	intraperitoneal glucose tolerance test	diet-induced obese mouse	subcutaneous, 10 nmol/kg daily, day 21, together with: glucose 1 g/kg intraperitoneal		glucose AUC	1290 mmol·min/L
O=[N+]([O-])c1ccc(S(=O)(=O)Oc2ccc(Br)cc2C=NNC(=S)Nc2ccccc2)c([N+](=O)[O-])c1	conversion to phenolic chelator	PBS/DMF 1:1	100 µM, pH 7.40, 37 °C, together with: glutathione 10 mM		time to complete conversion	≤ 2 h
Cc1cnc(Nc2cc(C)c(C)c(C)c2)nc1Nc1ccc2oc(=O)[nH]c2c1	item: phospho-STAT5a	rat, OVA asthma model, whole lung homogenate	intratracheal, dose not given, 2 h after OVA challenge	reference: OVA vehicle	STAT5a phosphorylation	inhibited
CCCOC(=O)Cc1c(C)n(C(=O)c2ccc(Cl)cc2)c2ccc(OC)cc12	hot plate test	BALB/c mice	50 mg/kg, 120 min		latency of nociceptive response	14.7 ± 1.44 s
OCc1cnn(-c2ccccc2)n1	plasma recalcification time	human plasma	10 µM		clotting time	281 ± 12 s
COc1c2c(cc3oc(CO)cc(=O)c13)O[C@H](C(C)(C)O)C2	analgesia	mouse	oral, 2 mg/kg, 0.5 h		hot plate latency	12.6 ± 2.8 s
CCCCOCc1cn(-c2cc(Cl)ccc2Cl)nn1	aPTT	human plasma	1 µM		clotting time	44.5 ± 0.7 s
Cc1ccc(N(O)/N=N/c2ccc(S(=O)(=O)Nc3nccs3)cc2)cc1	paw oedema	rat, carrageenan oedema	oral, 100 mg/kg, 4 h after carrageenan	reference: vehicle	inhibition	65.7%
CCCCCCCCCC(=O)OCc1cn(-c2ccc(Cl)cc2)nn1	prothrombin time	human plasma	10 µM		clotting time	15.4 ± 0.7 s
Cc1cc(O)c(C=O)c2c1C(=O)Oc1c(CO)c(O)c3c(c1O2)C(O)OC3=O (centres unmarked)	histopathology	rat, male, streptozotocin-induced diabetes, testis	10 mg/kg, 9 weeks		seminiferous epithelium height	68.9 ± 4.93 µm

Some of these lines once more:
Structure (SMILES)	test	system	setting	how to read	measurement	value
CC(C)[C@H](NC(=O)CN)C(=O)N[C@@H](CCCCN)C(=O)NCC(=O)N[C@@H](CC(=O)O)C(=O)N[C@@H](CCCCN)C(=O)NCC(=O)N[C@@H](CC(N)=O)C(=O)N1CCC[C@H]1C(=O)NCC(=O)N[C@@H](Cc1c[nH]c2ccccc12)C(=O)N1CCC[C@H]1C(=O)NCC(=O)N[C@@H](C)C(=O)N1CCC[C@H]1C(=O)O		K1735 M4 melanoma, mouse	dose not given, soluble peptide, together with: type I collagen-coated filters		cell motility	no inhibition
COc1c2c(cc3oc(CO)cc(=O)c13)O[C@H](C(C)(C)O)C2	analgesia	mouse	oral, 2 mg/kg, 0.5 h		hot plate latency	12.6 ± 2.8 s
OCc1cnn(-c2ccccc2)n1	plasma recalcification time	human plasma	10 µM		clotting time	281 ± 12 s
Cc1ccc(N(O)/N=N/c2ccc(S(=O)(=O)Nc3nccs3)cc2)cc1	paw oedema	rat, carrageenan oedema	oral, 100 mg/kg, 4 h after carrageenan	reference: vehicle	inhibition	65.7%
CC(C)C1=C(O)C(=O)C2=C(C=C[C@H]3C(C)(C)CCC[C@]23C)C1=O	oxygen radical absorbance capacity, fluorometric				ORAC	0.291 Trolox equivalents
